Published values pooled from the literature.
Compare with care: the assays were run in different laboratories. ± gives the spread as reported.
Sigmar1: Sigma non-opioid intracellular receptor 1 (Sigmar1, Rattus norvegicus, UniProt Q9R0C9)
Oprk1: Kappa-type opioid receptor (Oprk1, Rattus norvegicus, UniProt P34975)
MC1R: Melanocyte-stimulating hormone receptor (MC1R, Homo sapiens, UniProt Q01726)
ampC: Beta-lactamase (ampC, Escherichia coli K-12, UniProt P00811)
NPY5R: Neuropeptide Y receptor type 5 (NPY5R, Homo sapiens, UniProt Q15761)
Mannan-binding lectin serine protease 2: Mannan-binding lectin serine protease 2 (Homo sapiens, UniProt O00187)

CC1(CCN2CCc3ccccc3C2)Cc2cc(Cl)ccc2C1=O (single isomer, unassigned)
Ki (5-hydroxytryptamine receptor 7 (HTR7, Homo sapiens, UniProt P34969); binding, radioligand binding; with: [3H]LSD): 0.093 µM

Cc1cc(O)cc(C)c1CC(N)C(=O)NC1CCNc2c(C(=O)Nc3ccccc3)cc(Cc3ccccc3)cc21 (stereo not shown)
Ki (Kappa-type opioid receptor (OPRK1, Homo sapiens, UniProt P41145); ligand displacement, radioligand; cell membranes): 0.029 µM

Cc1cc2c(cc1Cl)-c1c(c(C(=O)NCC34CC5CC(CC(C5)C3)C4)nn1-c1ccc(Cl)cc1Cl)C2
Ki (Cannabinoid receptor 1 (Cnr1, Mus musculus, UniProt P47746); binding, radioligand displacement; mouse brain homogenate without cerebellum; with: [3H]CP-55,940): > 5 µM

C[C@]1(COC(=O)Cc2ccc(O)c(O)c2)[C@H](C(=O)O)N2C(=O)/C(=C/c3ccccn3)[C@H]2S1(=O)=O
Ki (Beta-lactamase OXA-48 (OXA-48, Klebsiella pneumoniae, UniProt Q6XEC0); inhibitor; with: nitrocefin): 0.17 ± 0.01 µM

CCCC(=O)c1ccc2c(c1)sc(=O)n2CCCCN1CCCCCC1
Ki (Sigmar1; binding, radioligand binding; rat liver membranes; with: [3H](+)-pentazocine 5 nM): 0.0048 ± 0.0001 µM

N=C(N)NCCC[C@@H]1NC(=O)[C@H](CCCNC(=N)N)NC(=O)[C@H](NC(=O)[C@H](Cc2ccccc2)NC(=O)CNC(=O)CNC(=O)[C@H](Cc2ccccc2)NCc2ccccc2)CC(=O)NC[C@@H](C(=O)N[C@@H](CCCNC(=N)N)C(=O)N2CCC[C@H]2C(=O)N[C@@H](CCCCN)C(N)=O)NC1=O
Ki (Oprk1; cell-free assay): 0.0687 µM

CC[C@H](C)[C@H](NC(=O)[C@@H](CCc1ccc(O)cc1)CNC(=O)[C@@H]1CCCN1C(=O)[C@H](CCCNC(=N)N)NC(=O)[C@@H](N)CCCNC(=N)N)C(=O)N[C@@H](CC(C)C)C(=O)O
Ki (Neurotensin receptor type 2 (NTSR2, Homo sapiens, UniProt O95665); ligand displacement, radioligand; cell membranes): 3.6 µM

CC[C@H](C)[C@H](NC(=O)CN)C(=O)N[C@H](C(=O)N[C@@H](CC(N)=O)C(=O)N[C@H](C(=O)N[C@@H](CC(C)C)C(=O)N[C@@H](CCC(N)=O)C(=O)N[C@@H](CCCCN)C(=O)N[C@@H](Cc1ccc(O)cc1)C(=O)N[C@@H](Cc1ccc(O)cc1)C(=O)N[C@H]1CSSC[C@@H]2NC(=O)[C@H](CCCCN)NC(=O)[C@H](CCCNC(=N)N)NC(=O)CNC(=O)[C@H](CCCNC(=N)N)NC(=O)[C@H]([C@@H](C)O)NC(=O)[C@H](CO)NC(=O)[C@@H]3CSSC[C@H](NC(=O)[C@H](CCCNC(=N)N)NC(=O)CNC(=O)CNC(=O)[C@H](CCCNC(=N)N)NC(=O)[C@H](C(C)C)NC(=O)[C@H](CCCNC(=N)N)NC1=O)C(=O)N[C@@H](C)C(=O)N[C@@H](C(C)C)C(=O)N[C@@H](CC(C)C)C(=O)N[C@@H](CO)C(=O)N[C@@H](CSSC[C@@H](C(=O)N[C@@H](CCCNC(=N)N)C(=O)N[C@@H](CCCNC(=N)N)C(=O)N[C@@H](CCCCN)C(=O)N[C@@H](CCCCN)C(N)=O)NC2=O)C(=O)N[C@@H](CC(C)C)C(=O)N1CCC[C@H]1C(=O)N[C@@H](CCCCN)C(=O)N[C@@H](C)C(=O)N[C@@H](CCC(=O)O)C(=O)N[C@@H](CCC(N)=O)C(=O)N[C@@H]([C@@H](C)CC)C(=O)NCC(=O)N[C@@H](CCCCN)C(=O)N3)[C@@H](C)O)[C@@H](C)CC
Ki (MC1R; ligand displacement in cells): 0.146 µM

Cc1onc(-c2ccccc2Cl)c1C(=O)NCC(=O)O
Ki (ampC): < 10000 µM

N=C(N)NC(=O)c1ccc(C(=O)NCCCC[C@H](NC(=O)CNC(=O)CCC(=O)NN=Cc2cc(C=NNC(=O)CCC(=O)NCC(=O)N[C@@H](CCCCNC(=O)c3ccc(C(=O)NC(=N)N)[nH]3)C(=O)N[C@@H](Cc3c[nH]c4ccccc34)C(=O)N[C@@H](CCCCN)C(N)=O)cc(C=NNC(=O)CCC(=O)NCC(=O)N[C@@H](CCCCNC(=O)c3ccc(C(=O)NC(=N)N)[nH]3)C(=O)N[C@@H](Cc3c[nH]c4ccccc34)C(=O)N[C@@H](CCCCN)C(N)=O)c2)C(=O)N[C@@H](Cc2c[nH]c3ccccc23)C(=O)N[C@@H](CCCCN)C(N)=O)[nH]1
Ki (Tryptase beta-2 (TPSB2, Homo sapiens, UniProt P20231); enzyme activity, low-affinity mode, inhibitor): 30 µM

OB(O)c1cnn(-c2cc(Cl)ncn2)c1
Ki (ampC; enzyme activity, inhibitor; with: CENTA): 0.01 µM

CC(=O)N[C@@H](CCCNC(=N)N)C(=O)N[C@@H](Cc1ccc(O)cc1)C(=O)N[C@@H](CCCNC(=N)N)C(=O)N[C@@H](CC(C)C)C(=O)N[C@@H](CCCNC(=N)NC(=O)NCCCCN)C(=O)N[C@@H](Cc1ccc(O)cc1)C(N)=O
Ki (NPY5R; ligand displacement, radioligand): > 5 µM

C=CC=CCCC1OC2CCC3(C)OC4C(O)CC5(C)OC(CCC=C(C)C(C)=CC=NNC(=O)CCCCC6SCC7NC(=O)NC76)C(C)CC5OC4CC3OC2CCC1(C)O (stereo not shown)
Ki (brevenal binding site (rat); fluorescent ligand competition; rat brain synaptosomes; with: BODIPY FL-brevenal 10 nM): 0.324 ± 0.028 µM

CC(C)C(=O)N[C@H]1c2nc(CCc3ccccc3)cn2[C@H](CO)[C@@H](O)[C@@H]1O
Ki (Protein O-GlcNAcase (OGA, Homo sapiens, UniProt O60502); enzyme activity, inhibitor): 0.0044 µM

CC(=O)N(C)[C@@H](Cc1ccccc1)C(=O)N[C@@H](Cc1ccccc1)C(=O)N[C@@H](CC1CCCCC1)C(=O)N[C@@H](CCCNC(=N)N)C(=O)N[C@@H](CC(C)C)C(=O)N[C@@H](CCCNC(=N)N)C(=O)N[C@@H](CCCNC(=N)N)C(=O)N[C@H](C)C(=O)N[C@@H](CCCNC(=N)N)C(=O)N1CCC[C@H]1C(=O)N[C@@H](CCCCN)C(N)=O
Ki (Oprk1; ligand displacement, radioligand): 0.00785 µM

CC[C@H](C)[C@H](NC(=O)[C@@H]1CSSC[C@H](NC(=O)[C@H](Cc2ccc(O)cc2)NC(=O)CN)C(=O)N[C@@H](CO)C(=O)N[C@@H](CCCNC(=N)N)C(=O)N[C@@H](CO)C(=O)N[C@@H](Cc2ccc(O)cc2)C(=O)N2CCC[C@H]2C(=O)N2CCC[C@H]2C(=O)N[C@@H](C(C)C)C(=O)N1)C(=O)N1CCC[C@H]1C(=O)N[C@@H](CC(=O)O)C(N)=O
Ki (Mannan-binding lectin serine protease 2; with: 250 µM Z-L-Lys-SBzl substrate): 0.17 µM

CCCc1ccc2c(c1)sc(=O)n2CCCCCN1CCCCCC1
Ki (Sigmar1; binding, radioligand binding; rat liver membranes; with: [3H](+)-pentazocine 5 nM): 0.0046 ± 0.0004 µM

CC(=O)N[C@H](CCCNC(=N)N)C(=O)N[C@@H](Cc1ccc(O)cc1)C(=O)N[C@@H](CCCNC(=N)NC(=O)NCCCCN)C(=O)N[C@@H](CC(C)C)C(=O)N[C@@H](CCCNC(=N)N)C(=O)N[C@@H](Cc1ccc(O)cc1)C(N)=O
Ki (Neuropeptide Y receptor type 1 (NPY1R, Homo sapiens, UniProt P25929); ligand displacement, radioligand): > 5 µM

CC(C)C[C@H](NC(=O)[C@H](CCCNC(=N)N)NC(=O)[C@H](Cc1ccccc1)NC(=O)[C@H](Cc1ccccc1)NC(=O)[C@H](Cc1ccccc1)N(C)C(=O)CN)C(=O)N[C@@H](CCCNC(=N)N)C(=O)N[C@@H](CCCNC(=N)N)C(=O)N[C@H](C)C(=O)N[C@@H](CCCNC(=N)N)C(=O)N1CCC[C@H]1C(=O)N[C@@H](CCCCN)C(N)=O
Ki (Oprk1; ligand displacement, radioligand): 0.0289 µM

CC(C)[C@H]1CC[C@@H](N2CC[C@@](C)(c3cccc(O)c3)[C@@H](C)C2)CC1
Ki (Mu-type opioid receptor (OPRM1, Homo sapiens, UniProt P35372); ligand displacement, radioligand): 0.0403 µM

CCCCCCCCCCCCCCCc1ccc(C(Br)P(=O)(O)O)cc1 (racemic)
Ki (Autotaxin (ENPP2, Homo sapiens, UniProt Q13822); free enzyme): 6.1 µM

CC[C@H](C)[C@H](NC(=O)[C@@H]1CSCC(=O)NCCCC[C@H](NC(=O)[C@H](Cc2ccc(O)cc2)NC(=O)CNC(C)=O)C(=O)N[C@@H](CO)C(=O)N[C@@H](CCCNC(=N)N)C(=O)N[C@@H](CO)C(=O)N[C@@H](Cc2ccc(O)cc2)C(=O)N2CCC[C@H]2C(=O)N2CCC[C@H]2C(=O)N[C@@H](C(C)C)C(=O)N1)C(=O)N1CCC[C@H]1C(=O)N[C@@H](CC(=O)O)C(N)=O
Ki (Mannan-binding lectin serine protease 2; with: 250 µM Z-L-Lys-SBzl substrate): 58 ± 1 µM

CC(=O)N[C@@H](Cc1ccc(O)cc1)C(=O)N[C@@H](CCCNC(=N)NC(=O)NCCCCN)C(=O)N[C@@H](CC(C)C)C(=O)N[C@@H](CCCNC(=N)N)C(=O)N[C@@H](Cc1ccc(O)cc1)C(N)=O
Ki (NPY5R; ligand displacement, radioligand): > 5 µM

CC[C@H](C)[C@H](NC(=O)CN)C(=O)N[C@H](C(=O)N[C@@H](CC(N)=O)C(=O)N[C@H](C(=O)N[C@@H](CC(C)C)C(=O)N[C@@H](CCC(N)=O)C(=O)N[C@@H](CCCCN)C(=O)N[C@@H](Cc1ccc(O)cc1)C(=O)N[C@@H](Cc1ccc(O)cc1)C(=O)N[C@H]1CSSC[C@@H]2NC(=O)[C@H](CCCCN)NC(=O)[C@H](CCCNC(=N)N)NC(=O)CNC(=O)[C@H](CCCNC(=N)N)NC(=O)[C@H]([C@@H](C)O)NC(=O)[C@H](CO)NC(=O)[C@@H]3CSSC[C@H](NC(=O)[C@H](CCCNC(=N)N)NC(=O)CNC(=O)CNC(=O)[C@H](CCCNC(=N)N)NC(=O)[C@H](C(C)C)NC(=O)[C@H](CCCNC(=N)N)NC1=O)C(=O)N[C@@H](C)C(=O)N[C@@H](C(C)C)C(=O)N[C@@H](CC(C)C)C(=O)N[C@@H](CO)C(=O)N[C@@H](CSSC[C@@H](C(=O)N[C@@H](CCCNC(=N)N)C(=O)N[C@@H](C)C(=O)N[C@@H](CCCCN)C(=O)N[C@@H](C)C(N)=O)NC2=O)C(=O)N[C@@H](CC(C)C)C(=O)N1CCC[C@H]1C(=O)N[C@@H](CCCCN)C(=O)N[C@@H](CCC(=O)O)C(=O)N[C@@H](CCC(=O)O)C(=O)N[C@@H](CCC(N)=O)C(=O)N[C@@H]([C@@H](C)CC)C(=O)NCC(=O)N[C@@H](CCCCN)C(=O)N3)[C@@H](C)O)[C@@H](C)CC
Ki (MC1R; ligand displacement in cells): 0.045 µM

CNC(=O)C1CCN(c2ccccc2NC(=O)c2ccc(-c3cc(O)ccc3C)c(C)n2)CC1
Ki (Tyrosine-protein kinase Fgr (FGR, Homo sapiens, UniProt P09769); cell-free assay, TR-FRET): 0.0011 µM
